# Assay results pooled from the literature.
# Every numbered part comes from another study and shows a few of its results, in no order.

# Set 1 — technique: RNA Bind-n-Seq; form: RNA; medium: in vitro; concentration: 365 nM; baseline: no-protein control; direction: higher = stronger binding
# Target: RNA binding protein fox-1 homolog 2, RRM domain, GST-SBP tag (RBFOX2, Homo sapiens, UniProt O43251-10, residues 100-194)
# Notes: natural RNA segment, single round, ends assumed
# All sequences stand within: GGGAGUUCUACAGUCCGACGAUC … UGGAAUUCUCGGGUGCCAA
# Construct (chain): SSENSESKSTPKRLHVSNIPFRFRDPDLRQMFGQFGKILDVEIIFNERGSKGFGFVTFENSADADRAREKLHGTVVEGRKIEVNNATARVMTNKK
Sequence,RBNS enrichment (R)
CCUUUGACAUAUCAGCCAAUACCAAUCAAGCUGACGACUCCAGACACUCCGUGUGACUGUAACAUUUCUUCAAGGAAAGUAUAGCGUCUAUGGAGUGCAGAGGGCAUGUG,0.298
CAUAUGUUUGUUUAUUAAUAGGAUUUUAAAAAAAAUGAACAUCUUUUUAAAGCUGGGAAAUGUAUAUAAAUUCAGGUAUCAGUAUCAAUAAUAGACUGUUUCAUUGAAAG,0.729
CUGGCCACUGUCCCUGUCCUUCUACAGAACCUGAGGGCAAAGAUGGUGGCUGUGUCUCUCCCCGGUAAUGUCACUGUUUUUAUUCCUUCCAUCUAGCAGCUGGCCUAAUC,0.511
ACAGUGUAAAUGUUUAUAUGGACACAGAACAGCAUCACUAAAUAAAGCCUUUCUACUUGUGGGUGCAAUAGAUUCCUUCUUUUUCCUUUGCAGUGUCAUCUUGAUUGUAU,0.768
UUUUUCCUUUACAUUUCUAGUAGUUUCCUUACAGAAAGGACCUGCAUUUUUAUUAAUGUGUAGAUUUAUGGUCUGAUCUGAAGAUGUUUGAGUAAUAUAUUUUUAAGAAC,0.502
CAGCAGCUAAGAAGACAGACAGUAGAGAAUGUGAGAGGAUCUCAUGGUUCUGAUGAUGAUUAUCCAACAAACAUCUGGCCCUCUCUACAUCUCUUCCCUCCAUCUCCUUG,0.331
CCACCUUUGUCAUCAGCUUUUCCUCUUUGCCACUGGAUCUUCAUGGAGACAUGGGCAAGCAUUAGUGGCUUCAGAUUGGAGACCAGCCUGGGACUUCCCUGCAGUGAGAG,0.65
CAUGUAUCCUUGCUCUCCAGAGAUGGCACUAGCCUCAAUCCAGCUUCCAUCUUUGUAUACACCUGCAUGCAGGAAGACCUGGAUAUGGAUGAGCCCUGAGGAACACAGGG,1.92

# Set 2 — technique: protein-binding microarray; form: double-stranded DNA, one strand shown; medium: in vitro; concentration: 940 nM top; notes: 60-bp whole probe; with: salmon DNA 0.4 mg/ml; baseline: random background probes; direction: higher = stronger binding; all sequences stand within: GCCTAGCAC … GTCTTGATTCGCTTGACGCTGCTG
# Target: Interferon regulatory factor 5, full length, phosphomimetic (IRF5, Homo sapiens, UniProt Q13568-2, residues 1-514, S451D/S453D/S456D/S462D)
Sequence,fitted relative affinity
TTAGCTTTCGGGTATCGATTAGTGCTA,5.73 z-score
GACGGTCTCCTTATCCTGGCGTGCTAG,0.502 z-score
TTAGGATTGCTTTTCCTTTAGTGCTAG,-0.292 z-score
TAAGGACTGGGGACTGGGTTAGTGCTA,-0.394 z-score
GACGGTATCTGGTTTCGGGACGTGCTA,4.86 z-score
GGCGATCTCAGTATCGAGACGTGCTAG,2.58 z-score
TTAGTTATCGACACTGGGTTAGTGCTA,0.4 z-score
GACCGTTTCCTTTCCCTGACGTGCTAG,1.79 z-score
GACGATCTCACACTGGAGACGTGCTAG,-0.0439 z-score
TTTTTTTTTTTTTCTGATCCGTGCTAG,1.08 z-score
GACGGTTCCGGTTACGGGACGTGCTAG,2.93 z-score
TTTGATTTCAGTATCGATTAGTGCTAG,6.24 z-score
TTGGGACTGCTTTTCCTTTAGTGCTAG,-0.49 z-score
CCAAATCTGTGTTATTAAAATGTGCTA,0.734 z-score
GTATGACTCTGCCTCTAACTGTGCTAG,0.332 z-score
GACGATATCGGTTTTCGAGACGTGCTA,0.956 z-score
GGCGATCTCAGACTGGAGACGTGCTAG,-0.49 z-score
TCAACTAGCGGGTCTTGCACTGTGCTA,-0.0571 z-score
TCACTCACTCACAGACTCACGTGCTAG,0.438 z-score

# Set 3 — technique: competition protein-binding microarray; form: double-stranded DNA, one strand shown; medium: in vitro; concentration: 2 µM; with: Pho4 competitor, 0.05 µM; direction: higher = stronger binding; all sequences stand within: … GTCTTGATTCGCTTGACGCTGCTG
# Target: Centromere-binding protein 1, full length, His-tagged (CBF1, Saccharomyces cerevisiae, UniProt P17106, residues 1-351)
# Sequence of UniProt P17106 (whole entry, looked up): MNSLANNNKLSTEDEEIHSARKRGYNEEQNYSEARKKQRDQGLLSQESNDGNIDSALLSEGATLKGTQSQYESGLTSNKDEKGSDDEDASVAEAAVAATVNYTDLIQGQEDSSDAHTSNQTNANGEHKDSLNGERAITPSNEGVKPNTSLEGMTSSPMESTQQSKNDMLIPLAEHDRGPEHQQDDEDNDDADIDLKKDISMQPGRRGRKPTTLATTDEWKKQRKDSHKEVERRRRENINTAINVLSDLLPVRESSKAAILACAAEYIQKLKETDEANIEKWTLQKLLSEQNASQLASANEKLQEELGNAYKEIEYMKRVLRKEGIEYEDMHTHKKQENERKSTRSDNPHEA
# Notes: whole 60-bp probe, lowest competitor level
Sequence,fluorescence intensity [a.u.]
AAAGCAGATGGGGATCGCGTGCTAACAAATTACTCG,196
GGTTGTAATGTTGTTGATGTGACGGGCCATATTGAA,80.2
GGCCGCGGAGCGCTGAACGTGATGGTCCATTGTATG,110
GTCCCATTCAATGAGCACATGCCTTGTGTAGTTTTG,154
CTCCTCCTCCGGCTTCACGTGTGGAATAGGTGTATG,495
CTTCTGAAAGTTTAACACGTGCCGTATCTACGGCTG,1780
CTTCTGTAAATTTGTCACAACACTTGACGCGCCCCG,100
AAATTACTAAGTTTTCACGTGTCGTACCCCGTATGA,898
CTTCTGTAAATTTGACTAGTGGGTGGACGCGCCCCG,79.5
GCAGCACAATCTCCCGTAGAATTATCAAGAATGTTT,74
ACAAAATGGGTATTTCTCGTGATGGTCGTCCCAAAA,117
TACCCAGCGCGTCCGCACGTGCTTTTTATGGAAACT,2240
AGCGACTAAGAAAGTCTTGTGACGGGATGGTGACAA,104
CGTCCTAGTGATTGGTAAGTGGGTGCCATGAGGAAG,92.8
AGACGAGGCAAAAGACACATGGTCGGCCCGTAACCA,83.3
TAGAAATTCCTCCTTCACGTTCTGTTGAAGGGAGGA,82.6
TGTGGCGATAAGTCCCACGTGAAGGTACAACTTCTC,674
CTTTGAAAAGCTGCCAACGTGACAAAACGTTCTGAT,475
TTTTACAGCTGCAATCAGGTGAATTCGTTTCTTCGA,114

# Set 4 — target: UBE2S UBC core domain (UniProt Q16763); technique: yeast two-hybrid; medium: yeast; notes: mostly zero background; baseline: not given; direction: higher = stronger interaction
# B1: TRIM72 RING domain (UniProt Q6ZMU5); chain APGLLHQELSCPLCLQLFDAPVTAECGHSFCRACLGRVAGEPAADGTVLCPCCQAPTRPQALST
# B2: RNF25 RING domain (UniProt Q96BH1); chain LTDNNIPHGQCVICLYGFQEKEAFTKTPCYHYFHCHCLARYIQHMEQELKAQGQEQEQERQHATTKQKAVGVQCPVCREPLVYDLASL
# B3: TRIM63 RING domain (UniProt Q969Q1); chain PMENLEKQLICPICLEMFTKPVVILPCQHNLCRKCANDIFQAANPYWTSRGSSVSMSGGRFRCPTCRHEVIMDRHGV
# B4: CUL9 RING domain (UniProt Q8IWT3); chain AQAVPVRPDHCPVCVSPLGCDDDLPSLCCMHYCCKSCWNEYLTTRIEQNLVLNCTCPIADCPAQPTGAFIR
# B5: UHRF2 RING domain (UniProt Q96PU4); chain CGGDPEKKCHSCSCRVCGGKHEPNMQLLCDECNVAYHIYCLNPPLDKVPEEEYWYCPSCKTDSSEVVKAGER
# B6: PHF21A RING domain (UniProt Q96BD5); chain SPTSTDGDIHEDFCSVCRKSGQLLMCDTCSRVYHLDCLDPPLKTIPKGMWICPRCQDQMLKKEEAIPW
# B7: RC3H2 RING domain (UniProt Q9HBD1); chain QAAQWTEFLSCPICYNEFDENVHKPISLGCSHTVCKTCLNKLHRKACPFDQTAINTDIDVL
# B8: TRIM8 RING domain (UniProt Q9BZR9); chain WKNCFEEELICPICLHVFVEPVQLPCKHNFCRGCIGEAWAKDSGLVRCPECNQAYNQKPGLE
# Residues (chain): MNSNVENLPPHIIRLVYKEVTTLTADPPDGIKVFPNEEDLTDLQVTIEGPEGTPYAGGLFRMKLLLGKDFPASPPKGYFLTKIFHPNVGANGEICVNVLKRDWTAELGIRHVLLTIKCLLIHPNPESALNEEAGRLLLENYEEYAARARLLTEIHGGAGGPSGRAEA
Sequence,lacZ reporter activity
B1 (TRIM72 RING domain),0
KTLSRFGIQPCSICLGDAKDPVCLPCDHVHCLRCLRAWFASEQMICPYCLTALPDEFSPA (RNF213 RING domain (UniProt Q63HN8)),0
QLRRLQEERTCKVCMDKEVSVVFIPCGHLVVCQECAPSLRKCPICRGIIKGTVRTF (BIRC2 RING domain (UniProt Q13490)),0
DDENSDNSNECVVCLSDLRDTLILPCRHLCLCTSCADTLRYQANNCPICRLPFRALLQIR (MGRN1 RING domain (UniProt O60291)),0
B2 (RNF25 RING domain),0
B3 (TRIM63 RING domain),0
B4 (CUL9 RING domain),0
B5 (UHRF2 RING domain),0
B6 (PHF21A RING domain),0
B7 (RC3H2 RING domain),0
B8 (TRIM8 RING domain),0
